# Experimental data pooled from the literature.
# A part holds a random share of what one study measured.
# UniProt Q16539, sequence (whole entry, looked up): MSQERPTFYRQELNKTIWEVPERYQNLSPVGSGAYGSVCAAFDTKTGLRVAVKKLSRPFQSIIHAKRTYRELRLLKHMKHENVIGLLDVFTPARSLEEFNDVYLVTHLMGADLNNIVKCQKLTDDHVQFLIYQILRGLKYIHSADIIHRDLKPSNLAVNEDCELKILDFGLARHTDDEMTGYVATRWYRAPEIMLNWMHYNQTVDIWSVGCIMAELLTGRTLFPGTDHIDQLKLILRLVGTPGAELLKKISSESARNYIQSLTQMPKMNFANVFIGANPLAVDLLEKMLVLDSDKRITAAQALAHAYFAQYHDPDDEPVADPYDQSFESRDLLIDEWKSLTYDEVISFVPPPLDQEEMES

# Study 1 — method: RNA Bind-n-Seq; molecule type: RNA; medium: in vitro; concentration: 365 nM; reference: no-protein control; direction: higher = stronger binding
# Target: RNA binding protein fox-1 homolog 2, RRM domain, GST-SBP tag (RBFOX2, Homo sapiens, UniProt O43251-10, residues 100-194)
# Notes: natural RNA segment, single round, ends assumed
# All sequences stand within: GGGAGUUCUACAGUCCGACGAUC … UGGAAUUCUCGGGUGCCAA
# Construct (chain): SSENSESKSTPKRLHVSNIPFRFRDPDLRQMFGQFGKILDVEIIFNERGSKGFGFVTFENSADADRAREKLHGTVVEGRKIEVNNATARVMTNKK
Sequence,RBNS enrichment (R)
CCCCAUUCCCCACCUGGUCCUCCCCCUUCCCAUGCUGCCAACUUCUAACCGCAAUAGUGACUCUGUGCUUGUCUGUUUAGUUCUGUGUAUAAAUGGAAUGUUGUGGAGAU,0.872
CUUUUGUAAGGUACUGAAUACUUAAUAUGUGGGAAACCCUUUUGCGUGGUCCUUAGGCUUACAAUGUGCACUGAAUCGUUUCAUGUAAGAAUCCAAAGUGGACACCAUUA,0.348
GGACAGCCCUCGACCUUAACUAUUUUCGAGACAGCACUGUGAAUCCAACCAAAAUGUCAAGUCCGUUCCGAAGGCAUUUUCCACUAGUUUUUGGACUAUGUAAACCACAU,0.43
GUCCCCCUUUCAGGCGUGUGGCGUCAUUCAUGGAGGAAGUGCUGGCUCUACUUAGCACACGCACAGUGGCACUAGGACCUGCGUGCCUGGCCCUCAGUGGGUAGGGCGGU,0.333
UGAAUCUCCAGCAGGAGGGUCCUUCUCUCCCUGGCCCGUCCUCCUCCCACCCCCUCCCCCUGGGGGCAAAUCAGGACACAACAGAGGGCAGAGGCCCCAUUAGCUUUAAA,0.276
UCCCCUACCCCUCUAUCAUUUAGUUUCUUCUGCGCAAGCCACUCUGGCUUCCUUUCAGUUUUGUGGUUCCCAUUUUUAGCUAGUUCAGUGGUUUUCAAUGGGCAUUUCUG,0.424
CAGCCAUUCUUCCUGCUUCUGGCCUCGGAGCUGCUUGUCUCCAGAUGCCCUCCUGAAACCAUGAGAAGCUUCAGCCUUGCCUCACUGGCUUCCCCAUCUGACCCCACCAG,1.27
GGAGGACUGUGAGGGCGGGGCCAGGCCUGUCAGCGUUCCCACCUGCCACUCCAGAGCUGGUGCCAGGGUCAGUCUGGAGAAGCCCCUGCAAUAAGCCCCUGCAUUGCCAA,0.408

# Study 2 — method: universal PBM; molecule type: double-stranded DNA, one strand shown; medium: in vitro; concentration: 600 nM; direction: higher = stronger binding
# Target: Sal-like protein 4, full length isoform A (SALL4, Homo sapiens, UniProt Q9UJQ4, residues 1-1053)
# UniProt Q9UJQ4, sequence (whole entry, looked up): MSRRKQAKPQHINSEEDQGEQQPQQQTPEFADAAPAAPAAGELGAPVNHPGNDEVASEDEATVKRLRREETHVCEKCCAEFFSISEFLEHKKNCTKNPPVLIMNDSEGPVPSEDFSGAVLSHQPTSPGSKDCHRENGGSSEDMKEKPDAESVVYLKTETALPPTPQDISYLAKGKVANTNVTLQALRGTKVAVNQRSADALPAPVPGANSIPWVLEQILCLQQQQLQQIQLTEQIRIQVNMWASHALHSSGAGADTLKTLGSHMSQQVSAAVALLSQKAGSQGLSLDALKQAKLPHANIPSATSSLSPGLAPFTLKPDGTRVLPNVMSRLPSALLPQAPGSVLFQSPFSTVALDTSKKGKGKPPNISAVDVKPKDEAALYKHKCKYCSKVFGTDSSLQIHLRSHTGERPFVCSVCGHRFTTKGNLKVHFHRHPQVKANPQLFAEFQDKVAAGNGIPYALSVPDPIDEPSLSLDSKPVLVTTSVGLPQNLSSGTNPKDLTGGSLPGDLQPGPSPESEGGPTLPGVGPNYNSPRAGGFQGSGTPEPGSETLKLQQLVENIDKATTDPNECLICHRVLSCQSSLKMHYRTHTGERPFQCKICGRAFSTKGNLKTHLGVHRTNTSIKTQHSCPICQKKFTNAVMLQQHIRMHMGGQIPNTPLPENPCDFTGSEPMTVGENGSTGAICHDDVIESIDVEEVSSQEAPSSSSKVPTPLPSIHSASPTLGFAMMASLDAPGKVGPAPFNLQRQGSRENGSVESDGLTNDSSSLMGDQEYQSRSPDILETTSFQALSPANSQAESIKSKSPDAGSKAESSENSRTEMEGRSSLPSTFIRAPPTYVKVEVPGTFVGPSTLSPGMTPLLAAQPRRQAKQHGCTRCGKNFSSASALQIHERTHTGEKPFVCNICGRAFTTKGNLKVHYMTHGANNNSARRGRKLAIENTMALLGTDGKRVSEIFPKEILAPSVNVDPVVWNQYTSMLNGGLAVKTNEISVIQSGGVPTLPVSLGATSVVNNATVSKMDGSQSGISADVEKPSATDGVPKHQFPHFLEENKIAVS
# Notes: 8-mer, flanks averaged, mean of replicates
Sequence,E-score
ATTATCAA,0.347
AACCTTAC,0.152
AGTAATTG,0.133
ACGTGATC,-0.0937
CCCCTCCA,-0.149
TATCTTCA,0.292
GAAAAGTC,-0.00861
GGGCAGGA,-0.217

# Study 3 — method: protein binding microarray; molecule type: double-stranded DNA, one strand shown; medium: in vitro; concentration: not given; reference: not given; direction: higher = stronger binding
# Target: Histone acetyltransferase KAT6A, both winged helices, GST fusion (KAT6A, Homo sapiens, UniProt Q92794, residues 1-181)
# Notes: 8-mer, flanks averaged, mean of 2 arrays, mostly near background
# Target sequence (chain): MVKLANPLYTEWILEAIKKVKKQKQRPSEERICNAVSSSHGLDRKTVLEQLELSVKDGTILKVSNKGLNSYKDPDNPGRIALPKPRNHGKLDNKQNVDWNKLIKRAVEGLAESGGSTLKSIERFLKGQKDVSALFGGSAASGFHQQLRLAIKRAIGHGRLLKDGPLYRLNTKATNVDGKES
Sequence,E-score
CTCCACGA,-0.106
ATAAATGC,-0.0674
AGAGCGTG,0.186
TCGCACAA,0.0334
CGGTAGGA,0.087
AAGCATTA,-0.227
CGCGCAGC,0.305
CCTCTTGA,-0.186

# Other studies, line by line
SMILES,target,observed,method,concentration,measurement,result
FC(F)(F)c1ccc2c(c1)nc(-c1cccnc1)n2C1CC1,"Mitogen-activated protein kinase 14 (MAPK14, Homo sapiens, UniProt Q16539)",cell-free assay,competition with immobilised ligand,1 µM,remaining binding,99%
